Measured values collected from several papers.
Numbered parts are unrelated; each lists some results of a single study.

Block 1
Target: Histone acetyltransferase KAT6A, winged helix 1, GST fusion (KAT6A, Homo sapiens, UniProt Q92794, residues 1-85)
Technique: protein binding microarray
Molecule type: double-stranded DNA, one strand shown
Medium: in vitro
Tested at: not given
Setting: 8-mer, flanks averaged, mean of 2 arrays, mostly near background
Relative to: not given
Direction: higher = stronger binding
Target sequence (chain): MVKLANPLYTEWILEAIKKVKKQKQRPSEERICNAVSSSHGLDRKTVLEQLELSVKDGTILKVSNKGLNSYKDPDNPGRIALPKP
Sequence | E-score
ACCAACGT | -0.0713
ACAGGGTC | -0.0579
ATTTCGTA | -0.155
AATCCTGG | -0.14
GGGTGCTA | -0.0419
CGCTAAGC | 0.279

Block 2
Target: Sal-like protein 4, full length isoform A (SALL4, Homo sapiens, UniProt Q9UJQ4, residues 1-1053)
Sequence of UniProt Q9UJQ4 (whole entry, looked up): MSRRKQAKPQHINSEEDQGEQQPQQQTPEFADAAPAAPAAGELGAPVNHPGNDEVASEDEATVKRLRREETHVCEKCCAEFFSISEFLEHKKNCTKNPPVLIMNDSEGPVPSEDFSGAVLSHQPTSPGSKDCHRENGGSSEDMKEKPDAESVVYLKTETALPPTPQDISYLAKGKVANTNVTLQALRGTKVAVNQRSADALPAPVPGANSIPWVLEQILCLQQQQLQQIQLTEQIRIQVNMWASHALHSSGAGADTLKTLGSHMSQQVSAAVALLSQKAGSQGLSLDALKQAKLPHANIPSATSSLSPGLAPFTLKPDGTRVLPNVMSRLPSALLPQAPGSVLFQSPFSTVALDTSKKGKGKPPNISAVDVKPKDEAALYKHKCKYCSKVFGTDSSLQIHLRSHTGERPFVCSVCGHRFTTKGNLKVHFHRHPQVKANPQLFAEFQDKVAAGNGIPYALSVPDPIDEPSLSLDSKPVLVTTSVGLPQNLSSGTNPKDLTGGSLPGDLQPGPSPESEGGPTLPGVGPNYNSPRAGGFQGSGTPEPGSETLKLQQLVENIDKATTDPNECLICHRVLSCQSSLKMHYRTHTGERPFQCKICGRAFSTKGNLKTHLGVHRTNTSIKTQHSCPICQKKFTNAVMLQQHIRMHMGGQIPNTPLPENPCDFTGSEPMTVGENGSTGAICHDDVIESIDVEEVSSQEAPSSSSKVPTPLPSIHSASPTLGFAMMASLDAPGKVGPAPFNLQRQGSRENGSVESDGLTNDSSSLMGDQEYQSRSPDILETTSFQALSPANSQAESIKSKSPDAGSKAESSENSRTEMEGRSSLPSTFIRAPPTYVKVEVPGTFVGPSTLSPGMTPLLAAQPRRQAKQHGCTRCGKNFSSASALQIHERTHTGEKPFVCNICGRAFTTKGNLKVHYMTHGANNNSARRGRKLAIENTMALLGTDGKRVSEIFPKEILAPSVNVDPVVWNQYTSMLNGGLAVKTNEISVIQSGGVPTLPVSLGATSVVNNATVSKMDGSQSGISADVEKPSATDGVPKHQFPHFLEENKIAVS
Technique: universal PBM
Molecule type: double-stranded DNA, one strand shown
Medium: in vitro
Tested at: 600 nM
Setting: 8-mer, flanks averaged, mean of replicates
Direction: higher = stronger binding
Sequence | E-score
GGGCCACC | -0.396
AACGCTTC | 0.059
CTCCCATC | 0.00344
AGGTTTCC | -0.0753
CGGAACCA | -0.281
GACTAAAA | 0.206

Block 3
Target: Centromere-binding protein 1, full length, N-terminal tag (CBF1, Saccharomyces cerevisiae, UniProt P17106, residues 1-351)
Sequence of UniProt P17106 (whole entry, looked up): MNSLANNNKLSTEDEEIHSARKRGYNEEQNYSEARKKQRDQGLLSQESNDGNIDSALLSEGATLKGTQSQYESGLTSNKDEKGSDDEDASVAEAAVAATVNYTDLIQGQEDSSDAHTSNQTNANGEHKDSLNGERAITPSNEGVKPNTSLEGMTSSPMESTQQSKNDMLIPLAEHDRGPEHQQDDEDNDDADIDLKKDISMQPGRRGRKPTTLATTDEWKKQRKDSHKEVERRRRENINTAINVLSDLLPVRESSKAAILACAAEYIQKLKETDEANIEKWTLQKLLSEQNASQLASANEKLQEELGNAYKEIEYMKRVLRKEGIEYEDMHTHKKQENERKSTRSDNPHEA
Technique: protein-binding microarray
Molecule type: double-stranded DNA, one strand shown
Medium: in vitro
Tested at: 0.8 µM
Setting: whole 60-bp probe, no competitor
Direction: higher = stronger binding
Sequence | fluorescence intensity [a.u.]
GAAAAGGAGAGTCGTCACCTGTAAAAGGAATCTTAGGTCTTGATTCGCTTGACGCTGCTG | 599
GAAAGCGATAACTCTATCGTGACATTCAGTGAATAGGTCTTGATTCGCTTGACGCTGCTG | 600
GAAATAAGGCAGAGGAGCGTCACCGGTAACCCTTAGGTCTTGATTCGCTTGACGCTGCTG | 475
GAATGCCAAGTTAAAGGTGACAAAATAGCGCCTTAGGTCTTGATTCGCTTGACGCTGCTG | 493

Other studies, line by line
Molecule | target | test | test system | setting | how to read | measurement | value
PhoQ, residues 284 288 289 292 302 303 SLSVQF | PhoP, residues 12 14 15 18 19 NYFRM (Escherichia coli, UniProt P23836) | Sort-seq, refers to: YFP reporter | E. coli | PhoQ-PhoP variant library, added: 10 µM Mg2+ | relative to: high Mg2+ state, higher = stronger signaling | fold induction | 11.1

For quick reference, copied from above (block 1):
Sequence | E-score
ACCAACGT | -0.0713
ACAGGGTC | -0.0579
GGGTGCTA | -0.0419
